Measurements of several laboratories.
Every numbered part comes from another study and shows a few of its results, in no order.

Block 1
Target: Ras GTPase-activating protein-binding protein 1, full length (G3BP1, Homo sapiens, UniProt Q13283)
Chain of UniProt Q13283 (whole entry, looked up): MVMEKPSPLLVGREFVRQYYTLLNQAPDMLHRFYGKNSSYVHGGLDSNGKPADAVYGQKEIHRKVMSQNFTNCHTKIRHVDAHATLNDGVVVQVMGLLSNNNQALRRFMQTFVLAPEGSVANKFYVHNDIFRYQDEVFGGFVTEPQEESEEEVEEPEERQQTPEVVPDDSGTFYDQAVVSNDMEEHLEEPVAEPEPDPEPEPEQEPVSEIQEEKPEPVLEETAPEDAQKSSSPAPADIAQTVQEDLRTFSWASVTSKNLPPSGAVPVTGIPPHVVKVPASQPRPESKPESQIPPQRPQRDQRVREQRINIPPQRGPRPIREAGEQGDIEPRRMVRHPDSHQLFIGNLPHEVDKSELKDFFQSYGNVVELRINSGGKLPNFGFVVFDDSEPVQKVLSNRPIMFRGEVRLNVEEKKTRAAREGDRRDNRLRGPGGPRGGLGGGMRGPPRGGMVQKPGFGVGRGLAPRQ
Technique: RNA Bind-n-Seq
Form: RNA
Medium: in vitro
Tested at: 200 nM
Notes: whole 134-nt RNA, ends assumed
With: 150 mM LiCl
Baseline: input library
Reading: higher = stronger binding
Each molecule: 7-deaza-guanosine replaces G
All sequences stand within: GGGAGUUCUACAGUCCGACGAUC … UGGAAUUCUCGGGUGUCAAGG
With `GCAGGAAGUAAAAACAAAUGGAAAUGCUUCGGAUAGUGGCAGGGGUGGGGGUUGCUAAGGAAAGGGUGGGAUGGCAGUGGGUAAAGAGUU` the log2 enrichment was 0.253.
The log2 enrichment of `CACAGACAACACGCACCCACACAGACACAGAGGGAAGGGGUUGGGAUGGGGACAGGAAACACAGCAGGGCGGGGUAGGACCCCAGCCCCU` is reported as -0.242.
The log2 enrichment of `AGUCCUGUGCUACACAUCGUAUGUACCGAAUCGGUUUGGAAAAAAAGGAAAAAAAGGAAAGUAUUAUGUUACGCCGUUCGGAUCUGCACU` is reported as -1.48.
For `UGGCCCUCAAGCACUGCACAGAGGCCCUUCUUUCUCUUGGCCAGUACUCCAUGGCAGACUUCACAGGGCCUUGUCCAUUGGAAAUAGAAC`, the log2 enrichment was 0.522.
The log2 enrichment of `CAAGUCCUGUGCUACACAUCGUAUGUACCGAAUCGGGAGGGUUUGGGUUUUUGGGAAAGUAUUAUGUUACGCCGUUCGGAUCUGCACUUC` is reported as 0.32.
`UCCGCGUGUGAAGUUUUUCUCGGCUGCAUCAUGGGUGCCACAUUCUUUUUGUUGUUUUCAGUGCUGCAAAAGCCCCAUAUCUGGCCAAGU` gave a log2 enrichment of 0.373.
`ACCAUGCAGGUGGGCAUCUUUGGGAAAAGGGGCAAGGGGGGGAUAGGGAGGGGGGUAACACUUUGGGAACAGGUGGUCCCAGGUCGUUUC` gave a log2 enrichment of 0.24.
`AAGUCCUGUGCUACACAUCGUAUGUACCGAAUCGGGUUUUUUUGGGUGGGAAAGGGAAAGUAUUAUGUUACGCCGUUCGGAUCUGCACUU` has a log2 enrichment of -0.291.
With `UCAAGUCCUGUGCUACACAUCGUAUGUACCGAAUCGGGUUGGGGUUGGGUUGGGGAAAGUAUUAUGUUACGCCGUUCGGAUCUGCACUUC` the log2 enrichment was 0.434.

Block 2
Molecule: PhoQ, residues 284 288 289 292 302 303 SSCCRF
Technique: Sort-seq
Measured: YFP reporter
Medium: E. coli
Notes: PhoQ-PhoP variant library
With: 10 µM Mg2+
Baseline: high Mg2+ state
Reading: higher = stronger signaling
For PhoP, residues 12 14 15 18 19 LHTVL (Escherichia coli, UniProt P23836): fold induction read 3.46.
It gave 19.4 for fold induction (PhoP, residues 12 14 15 18 19 NQCAL (Escherichia coli, UniProt P23836)).
The fold induction was 23.6 (PhoP, residues 12 14 15 18 19 TQAML (Escherichia coli, UniProt P23836)).

Block 3
Target: RING finger protein unkempt homolog, zinc fingers 1-6, SBP tag (UNK, Homo sapiens, UniProt Q9C0B0, residues 30-357)
Chain of UniProt Q9C0B0 (30-357, looked up): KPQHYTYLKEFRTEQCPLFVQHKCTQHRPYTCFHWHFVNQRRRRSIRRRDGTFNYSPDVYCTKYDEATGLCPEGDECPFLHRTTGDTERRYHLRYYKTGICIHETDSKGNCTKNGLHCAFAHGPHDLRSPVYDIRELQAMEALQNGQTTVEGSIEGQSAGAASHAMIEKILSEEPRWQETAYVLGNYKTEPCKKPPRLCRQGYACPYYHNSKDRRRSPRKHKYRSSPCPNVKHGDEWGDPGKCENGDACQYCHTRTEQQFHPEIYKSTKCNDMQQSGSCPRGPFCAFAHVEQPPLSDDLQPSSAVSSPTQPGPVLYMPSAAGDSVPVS
Technique: RNA Bind-n-Seq
Form: RNA
Medium: in vitro
Tested at: 100 nM
Notes: RNA with constant flanks, vertebrate orthologous sites, ends assumed
Baseline: input RNA pool
Reading: higher = stronger binding
All sequences stand within: GGGAGUUCUACAGUCCGACGAUC … CAACAGAGGAUUGAGCAUCA
The bound/input enrichment of `CAUGUAGUUUGUUUUUAAUUUCAAGCAAAUCUUCUUGUACUUGAAUGUGCCCUGUUUUGUUAGCACACCUAGACUUGCUGUAACUGUACUCAUGUCCCAGUAUGUACGUUCUUUCUAUGA` is reported as 1.12 ratio.
`CCAUUCUUCCACGUAGGGUUGGCCUCGGAUCUAUAGGAUUUAUGACAAAUGUAUUAUAUCUAAUUGCAUUGAGUUAUUUUUUAUGGGUUUGUGAAUAGAGAUGGCAUCUCCUACAUUAAA` gave a bound/input enrichment of 0.465 ratio.
For `GGCUUUUCUGGCAGCCCAGAUGAACCCUUCAUGGGAGCGGUAAAGAAAUUUGUGAAGCGGCAGCGCACACAGCUGUACAGCUGCACCGCCUCUCGCUGCUGUGCUCAGGUGCUUACUACA`, the bound/input enrichment was 0.357 ratio.
With `ACCUCCAAUAGGCUAAUUCAGGGAAAGGAAACAGGCUUCAGGGAAUAUAAAUUAAUAUAGUAGUAGUCAUGAAGAAUAACUUUGAUAUAACUGAUUGGGGGAGUGAUGGCAACUUGUGAA` the bound/input enrichment was 1.23 ratio.
`AUUCAUCUCUUUUUAUAUGUCCAAAAGUGACUGACCUUUUCAGCAGCUGCUGGUUUUACUUAGCCCUCCCCUCUUAGAGCACGGUUACCACUGCUCUUUAACAGAUGCUGCCUGGUAAUC` gave a bound/input enrichment of 0.605 ratio.
`CAGUCUGCUCCUGGGCGAGUGACUGAGGGUGAAGCAUCCACUAGCGCUUCGAGGGCAUCAUAGUAUUUUUUUGCUGCCUCAGAGUCCCCAAAGCCUUCAAGCGGAAGUGGUAGUAGAUGG` gave a bound/input enrichment of 1.59 ratio.
`GUGUCUUGGUUUGGGGUAGAGGGGAGGGAGGGGCAGGACUGUGGAAUCUCUAGUGGGUAUGGGUAUAUAUAGGGUGCACAGUUCUAAGUGGGCCUUUAUGUUAAAAACCUCUGGGGGUGU` gave a bound/input enrichment of 0.511 ratio.
For `GUUAGGUCAUGACCCUUAUAGGCUAGGUCAUGAUGCCUAUAGAUUAGGGCAAGACCCUUAUAGAUUAGGCCAUGAUCCCUACAGACUAACUCCUGAUCCCUAUAGGAUGUCACCUAGACC`, the bound/input enrichment was 0.404 ratio.
For `GAACUAAAGGAGUUAGCAUCUUUAUUUUUGUAACAAAGAUAAAGGUUAUUUUGAAAUUAUUAGGAUUUUUACACAACUCUGAAAUCUGUUGCUUUUUUAAACAAAUCGUUUGAUCUUAGG`, the bound/input enrichment was 0.424 ratio.

Block 4
Target: Interferon regulatory factor 5, full length, phosphomimetic (IRF5, Homo sapiens, UniProt Q13568-2, residues 1-514, K96S/S451D/S453D/S456D/S462D)
Technique: protein-binding microarray
Form: double-stranded DNA, one strand shown
Medium: in vitro
Tested at: 250 nM
Notes: 60-bp whole probe
With: salmon DNA 0.4 mg/ml
Baseline: random background probes
Reading: higher = stronger binding
All sequences stand within: GCCTAGCAC … GTCTTGATTCGCTTGACGCTGCTG
The log fluorescence of `GACGATATCAGCATCGAGACGTGCTAG` is reported as 0.826 z-score.
For `GACGGACTGGACACTGGGGCCGTGCTA`, the log fluorescence was -0.647 z-score.
`CATTGCCTATTTTTCCCCTGGTGCTAG` gave a log fluorescence of 0.449 z-score.
For `TTAGGTCTCCGTTTCCTTTAGTGCTAG`, the log fluorescence was 0.0693 z-score.
The log fluorescence of `GACGGACTGCTTATCCTGATGTGCTAG` is reported as -0.355 z-score.
`TTAGGTCTCGGTCACGGTTAGTGCTAG` gave a log fluorescence of 0.44 z-score.
With `GTCGGTATCCTACTGCTGACGTGCTAG` the log fluorescence was 0.197 z-score.
With `ATAGATTTCGGGTATCGATTAGTGCTA` the log fluorescence was 7.52 z-score.
With `TTAGGTTTCCTTTCCTTTTAGTGCTAG` the log fluorescence was 1.87 z-score.
`ACATGCTTCGAGATCTCCGAGTGCTAG` gave a log fluorescence of -0.175 z-score.

Excerpt of the above (block 4):
The log fluorescence of `GACGATATCAGCATCGAGACGTGCTAG` is reported as 0.826 z-score.
For `GACGGACTGGACACTGGGGCCGTGCTA`, the log fluorescence was -0.647 z-score.
`CATTGCCTATTTTTCCCCTGGTGCTAG` gave a log fluorescence of 0.449 z-score.
For `TTAGGTCTCCGTTTCCTTTAGTGCTAG`, the log fluorescence was 0.0693 z-score.
The log fluorescence of `GACGGACTGCTTATCCTGATGTGCTAG` is reported as -0.355 z-score.
